Experimental data from different studies.
Protocols differ between the studies behind these lines. Numbers after ± are the reported error. In brackets after ≈: the same amount, converted by molar mass.

Structure (SMILES) | tested on | test | system | conditions | scale | endpoint | value
CC[C@H](C)[C@H](NC(=O)[C@H](C)NC(=O)[C@H](CCCCN)NC(=O)[C@H](CC(C)C)NC(=O)[C@H](C)NC(=O)[C@@H](NC(=O)[C@H](Cc1c[nH]cn1)NC(=O)[C@H](CC(C)C)NC(=O)[C@@H](NC(=O)[C@@H](NC(=O)[C@H](CCCCN)NC(=O)[C@H](C)NC(=O)[C@H](C)NC(=O)[C@H](CO)NC(=O)[C@H](CCCCN)NC(=O)[C@H](Cc1ccccc1)NC(=O)[C@@H](NC(=O)[C@H](CCCCN)NC(=O)[C@H](CC(C)C)NC(=O)[C@H](Cc1ccccc1)NC(=O)[C@H](CO)NC(=O)[C@H](CCCCN)NC(=O)[C@H](Cc1c[nH]c2ccccc12)NC(=O)[C@H](CCCCN)NC(C)=O)[C@@H](C)O)[C@@H](C)O)C(C)C)[C@@H](C)O)C(=O)N[C@@H](CO)C(=O)N[C@@H](CO)C(N)=O | Klebsiella pneumoniae | – | ATCC 700603 (ESBL) | – | – | MIC90 | 8 µg/mL (≈ 2.73 µM)
O=c1[nH]c(=O)n([C@H]2C[C@H](O)[C@@H](CO)O2)cc1/C=C/Br | varicella-zoster virus | viral replication | HEL, Oka TK+ | – | – | EC50 | 270 nM
COc1cc2c(Oc3ccc4[nH]c(C)cc4c3F)ccnc2cc1OCC1(N)CC1 | – | – | paediatric recurrent refractory sarcoma | 8 mg/kg | – | grade 3 Leukopenia | 0%
CCC(C)n1ncn(-c2ccc(N3CCN(c4ccc(OCC5COC(Cn6cncn6)(c6ccc(Cl)cc6Cl)O5)cc4)CC3)cc2)c1=O (stereo not shown) | CVA21 | viral replication | – | 72 h | – | EC50 | 770 ± 110 nM
CCC(C(=O)Nc1sc(C(N)=O)c(C)c1C(=O)OC)c1ccc(F)cc1 (stereo not shown) | human alphaherpesvirus 1 | viral replication | Vero | 53 h | – | EC50 | > 100000 nM
COc1cc(CCC[P+](c2ccccc2)(c2ccccc2)c2ccccc2)c(OC)c2c1OCO2.[I-] | UACC-257 | SRB | – | – | – | GI50 | -6.42 log M
C[C@H](Cn1cnc2c(N)ncnc21)OCP(=O)(O)O | HIV-2 | viral cytopathic effect | MT-4, ROD | – | – | EC50 | 2060 nM
COC(=O)N[C@H](C(=O)N1CCC[C@H]1c1ncc(-c2ccc(-c3ccc(-c4cnc([C@@H]5CCCN5C(=O)[C@@H](NC(=O)OC)C(C)C)[nH]4)cc3)cc2)[nH]1)C(C)C | Hepatitis C virus | replicon replication, transient replicon | Huh-7, genotype 2a JFH-1 | – | – | EC50 | 0.0035 to 0.02 nM
CC[C@H](C)[C@@H]1NC(=O)[C@@H]2CCCN2C(=O)[C@H](CC(C)C)NC(=O)[C@H](CC(C)C)NC(=O)CNC(=O)[C@@H](NC(=O)[C@@H](NC(=O)[C@H](CC(=O)O)NC(=O)CNC(=O)[C@@H](NC(=O)[C@H](C)NC(=O)CNC(=O)[C@H](CCCCN)NC(=O)[C@H](CC(C)C)NC(=O)[C@H](CC(C)C)NC(=O)[C@H](CCCCN)NC(=O)CNC(=O)[C@@H](NC(=O)[C@@H](N)CC(C)C)C(C)C)C(C)C)C(C)C)CSSC[C@@H](C(=O)O)NC1=O | – | RNA-seq, refers to: Kdm6b | mouse, traumatic brain injury model, frontal cortex and hippocampus | dose not given | relative to: TBI alone | log2 fold change | -1.17
CC(C)C[C@H](NC(=O)OCc1ccccc1)C(=O)N[C@H](C=O)C[C@@H]1CCCNC1=O | Norovirus | viral replication | HG23 replicon cells | 96 h | – | EC50 | 5670 ± 1500 nM
O=c1[nH]c(=O)n([C@H]2C[C@H](O)[C@@H](CO)O2)cc1/C=C/Br | varicella-zoster virus | plaque formation | HEL, Oka, TK+ | – | – | EC50 | 42 nM
CC(C)(C)[C@H](NC(=O)C(F)(F)F)C(=O)N1C[C@H]2[C@@H]([C@H]1C(=O)N[C@H](C#N)C[C@@H]1CCNC1=O)C2(C)C | HCoV-OC43 | viral replication | Huh-7 | 48 h | – | EC50 | 290 nM
COc1c(CCC[P+](c2ccccc2)(c2ccccc2)c2ccccc2)cc2c(c1OC)OCO2.[I-] | OVCAR-3 | SRB | – | – | – | LC50 | > -4 log M
CNCC(=O)N[C@@H](CO)C(=O)N[C@H]1[C@H](O)[C@@H](O)[C@H](n2ccc(N)nc2=O)O[C@@H]1C(N)=O | tobacco mosaic virus | curative activity | in vivo plant | – | – | EC50 | 331 ± 2.8 µg/mL
Nc1ccn(C[C@@H](CO)OCP(=O)(O)O)c(=O)n1 | herpes simplex virus 2 | viral cytopathic effect | HEL, G | – | – | EC50 | 1000 nM
C[C@H]1CN(c2n[nH]c3nc(N[C@H]4CC[C@H](NS(=O)(=O)CCC(F)(F)F)CC4)ncc23)CCO1 | Leishmania donovani | cell growth | promastigotes, LdBOB CRK6 single knockout | – | – | EC50 | 7 ± 0.09 nM

Some of these lines once more:
Structure (SMILES) | tested on | test | system | conditions | scale | endpoint | value
COc1cc2c(Oc3ccc4[nH]c(C)cc4c3F)ccnc2cc1OCC1(N)CC1 | – | – | paediatric recurrent refractory sarcoma | 8 mg/kg | – | grade 3 Leukopenia | 0%
COc1cc(CCC[P+](c2ccccc2)(c2ccccc2)c2ccccc2)c(OC)c2c1OCO2.[I-] | UACC-257 | SRB | – | – | – | GI50 | -6.42 log M
